Published values pooled from the literature.
Each numbered part is a random draw from the data of one study; scales do not carry over between parts.
Sequence of UniProt P23458 (whole entry, looked up): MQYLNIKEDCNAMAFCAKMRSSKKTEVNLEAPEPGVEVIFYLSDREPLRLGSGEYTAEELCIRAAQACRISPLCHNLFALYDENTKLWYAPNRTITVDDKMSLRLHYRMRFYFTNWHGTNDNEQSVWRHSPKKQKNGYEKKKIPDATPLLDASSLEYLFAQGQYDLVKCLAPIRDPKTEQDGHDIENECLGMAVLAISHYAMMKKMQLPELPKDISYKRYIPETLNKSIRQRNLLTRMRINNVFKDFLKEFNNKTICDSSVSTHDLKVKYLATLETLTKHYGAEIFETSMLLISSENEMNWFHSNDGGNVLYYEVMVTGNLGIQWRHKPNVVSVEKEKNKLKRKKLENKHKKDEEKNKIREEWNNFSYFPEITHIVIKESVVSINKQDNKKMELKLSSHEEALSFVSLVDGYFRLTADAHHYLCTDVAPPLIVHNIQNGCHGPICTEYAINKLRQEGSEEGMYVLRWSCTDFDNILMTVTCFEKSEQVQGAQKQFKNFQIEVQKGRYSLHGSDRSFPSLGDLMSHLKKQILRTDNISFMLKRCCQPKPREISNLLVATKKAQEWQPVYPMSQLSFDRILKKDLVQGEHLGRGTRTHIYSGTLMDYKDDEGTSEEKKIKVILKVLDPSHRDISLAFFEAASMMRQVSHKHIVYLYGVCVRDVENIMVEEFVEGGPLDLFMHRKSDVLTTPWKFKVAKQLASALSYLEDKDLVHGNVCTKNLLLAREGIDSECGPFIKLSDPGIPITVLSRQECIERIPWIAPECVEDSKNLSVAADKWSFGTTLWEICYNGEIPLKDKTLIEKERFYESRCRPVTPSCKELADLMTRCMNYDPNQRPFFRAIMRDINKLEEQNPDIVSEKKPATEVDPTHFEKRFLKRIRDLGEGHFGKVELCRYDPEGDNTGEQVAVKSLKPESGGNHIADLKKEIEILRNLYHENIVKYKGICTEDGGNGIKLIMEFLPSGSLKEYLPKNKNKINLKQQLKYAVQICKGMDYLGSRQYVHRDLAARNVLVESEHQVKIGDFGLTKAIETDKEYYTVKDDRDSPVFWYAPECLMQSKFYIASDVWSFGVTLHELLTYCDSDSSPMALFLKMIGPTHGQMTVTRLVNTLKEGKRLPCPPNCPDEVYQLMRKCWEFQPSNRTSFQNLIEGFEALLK
Sequence of UniProt P35916 (whole entry, looked up): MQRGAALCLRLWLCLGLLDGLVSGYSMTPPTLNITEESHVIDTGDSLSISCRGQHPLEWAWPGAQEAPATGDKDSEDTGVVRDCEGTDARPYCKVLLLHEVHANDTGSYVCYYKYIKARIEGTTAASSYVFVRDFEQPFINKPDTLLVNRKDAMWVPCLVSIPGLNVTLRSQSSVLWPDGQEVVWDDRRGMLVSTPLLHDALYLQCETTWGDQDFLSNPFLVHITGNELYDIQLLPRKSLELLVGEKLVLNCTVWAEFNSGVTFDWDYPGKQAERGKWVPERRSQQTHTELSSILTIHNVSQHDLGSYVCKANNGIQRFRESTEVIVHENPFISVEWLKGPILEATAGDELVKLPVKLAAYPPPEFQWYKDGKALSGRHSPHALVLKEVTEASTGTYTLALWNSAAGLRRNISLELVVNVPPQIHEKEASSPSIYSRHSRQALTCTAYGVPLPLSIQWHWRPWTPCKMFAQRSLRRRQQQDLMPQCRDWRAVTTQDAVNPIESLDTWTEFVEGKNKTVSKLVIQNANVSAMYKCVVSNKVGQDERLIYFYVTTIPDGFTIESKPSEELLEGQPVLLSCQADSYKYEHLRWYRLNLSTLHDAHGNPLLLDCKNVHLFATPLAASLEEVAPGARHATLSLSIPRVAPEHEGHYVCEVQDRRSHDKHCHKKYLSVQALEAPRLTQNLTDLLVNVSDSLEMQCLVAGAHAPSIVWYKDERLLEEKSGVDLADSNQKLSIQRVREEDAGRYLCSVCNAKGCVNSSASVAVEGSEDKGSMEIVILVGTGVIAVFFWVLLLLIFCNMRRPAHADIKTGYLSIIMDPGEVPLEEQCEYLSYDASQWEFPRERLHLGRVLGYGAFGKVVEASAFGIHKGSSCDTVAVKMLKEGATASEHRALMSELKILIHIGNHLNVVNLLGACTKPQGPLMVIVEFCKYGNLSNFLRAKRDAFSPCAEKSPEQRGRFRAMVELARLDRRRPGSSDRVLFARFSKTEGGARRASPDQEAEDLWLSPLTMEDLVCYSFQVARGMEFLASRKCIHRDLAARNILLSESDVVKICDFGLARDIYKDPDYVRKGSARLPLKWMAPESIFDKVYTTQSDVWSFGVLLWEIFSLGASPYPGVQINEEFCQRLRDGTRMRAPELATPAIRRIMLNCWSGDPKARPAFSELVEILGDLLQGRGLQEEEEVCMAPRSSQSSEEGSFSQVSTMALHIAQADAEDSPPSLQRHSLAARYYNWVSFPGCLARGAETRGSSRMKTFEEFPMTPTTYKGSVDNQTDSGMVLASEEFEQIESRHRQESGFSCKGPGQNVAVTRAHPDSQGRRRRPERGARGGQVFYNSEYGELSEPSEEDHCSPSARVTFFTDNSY
Sequence of UniProt P00519 (whole entry, unmodified, looked up): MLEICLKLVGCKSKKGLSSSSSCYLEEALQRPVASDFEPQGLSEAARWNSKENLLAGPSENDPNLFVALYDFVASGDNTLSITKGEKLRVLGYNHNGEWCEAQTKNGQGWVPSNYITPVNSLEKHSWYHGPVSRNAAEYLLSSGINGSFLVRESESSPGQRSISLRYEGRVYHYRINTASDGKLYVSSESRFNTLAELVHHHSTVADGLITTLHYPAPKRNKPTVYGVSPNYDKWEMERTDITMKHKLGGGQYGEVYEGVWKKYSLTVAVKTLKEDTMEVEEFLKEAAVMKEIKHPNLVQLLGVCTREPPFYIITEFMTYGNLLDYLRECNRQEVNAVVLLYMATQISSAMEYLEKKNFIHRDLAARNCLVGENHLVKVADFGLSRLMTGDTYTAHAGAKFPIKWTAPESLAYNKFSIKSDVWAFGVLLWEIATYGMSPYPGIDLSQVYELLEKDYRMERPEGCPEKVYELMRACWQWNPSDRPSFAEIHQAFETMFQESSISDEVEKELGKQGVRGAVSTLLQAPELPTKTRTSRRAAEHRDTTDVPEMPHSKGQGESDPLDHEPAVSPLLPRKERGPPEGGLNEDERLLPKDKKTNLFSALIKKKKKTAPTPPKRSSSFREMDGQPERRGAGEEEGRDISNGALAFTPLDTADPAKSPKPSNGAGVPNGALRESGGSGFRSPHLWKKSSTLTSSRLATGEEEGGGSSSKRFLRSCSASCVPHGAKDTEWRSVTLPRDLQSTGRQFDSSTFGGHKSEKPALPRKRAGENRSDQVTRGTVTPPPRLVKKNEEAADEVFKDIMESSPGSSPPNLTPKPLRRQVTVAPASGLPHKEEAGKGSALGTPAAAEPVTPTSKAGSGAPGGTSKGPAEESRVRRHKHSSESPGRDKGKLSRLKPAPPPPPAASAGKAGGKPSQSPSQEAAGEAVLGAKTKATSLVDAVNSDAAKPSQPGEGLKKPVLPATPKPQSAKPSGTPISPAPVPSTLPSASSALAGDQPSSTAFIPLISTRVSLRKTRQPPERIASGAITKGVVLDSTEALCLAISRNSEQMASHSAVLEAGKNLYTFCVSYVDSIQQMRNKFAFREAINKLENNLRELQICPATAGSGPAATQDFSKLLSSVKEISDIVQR
Sequence of UniProt P49674 (whole entry, looked up): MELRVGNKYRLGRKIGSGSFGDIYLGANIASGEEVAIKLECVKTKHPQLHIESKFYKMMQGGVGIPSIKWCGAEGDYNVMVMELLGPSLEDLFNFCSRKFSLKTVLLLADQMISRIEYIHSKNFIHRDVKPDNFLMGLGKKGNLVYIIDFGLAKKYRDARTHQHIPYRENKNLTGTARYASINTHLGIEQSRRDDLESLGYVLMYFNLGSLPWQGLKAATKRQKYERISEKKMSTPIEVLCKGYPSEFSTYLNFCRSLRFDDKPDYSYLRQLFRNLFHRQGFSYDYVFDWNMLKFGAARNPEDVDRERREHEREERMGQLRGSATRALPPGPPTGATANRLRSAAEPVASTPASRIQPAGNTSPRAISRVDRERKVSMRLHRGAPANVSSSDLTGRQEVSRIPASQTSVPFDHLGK

Set 1
Target: Interferon regulatory factor 7, full length, phosphomimetic (IRF7, Homo sapiens, UniProt Q92985, residues 1-503, S101K/S471D/S472D/S475D/S476D/S477D/S483D/S484D/S487D)
Technique: protein-binding microarray
Form: double-stranded DNA, one strand shown
Matrix: in vitro
Concentration: 250 nM
Notes: 60-bp whole probe
With: salmon DNA 0.4 mg/ml
Baseline: random background probes
Reading: higher = stronger binding
All sequences stand within: GCCTAGCAC … GTCTTGATTCGCTTGACGCTGCTG
Construct (chain): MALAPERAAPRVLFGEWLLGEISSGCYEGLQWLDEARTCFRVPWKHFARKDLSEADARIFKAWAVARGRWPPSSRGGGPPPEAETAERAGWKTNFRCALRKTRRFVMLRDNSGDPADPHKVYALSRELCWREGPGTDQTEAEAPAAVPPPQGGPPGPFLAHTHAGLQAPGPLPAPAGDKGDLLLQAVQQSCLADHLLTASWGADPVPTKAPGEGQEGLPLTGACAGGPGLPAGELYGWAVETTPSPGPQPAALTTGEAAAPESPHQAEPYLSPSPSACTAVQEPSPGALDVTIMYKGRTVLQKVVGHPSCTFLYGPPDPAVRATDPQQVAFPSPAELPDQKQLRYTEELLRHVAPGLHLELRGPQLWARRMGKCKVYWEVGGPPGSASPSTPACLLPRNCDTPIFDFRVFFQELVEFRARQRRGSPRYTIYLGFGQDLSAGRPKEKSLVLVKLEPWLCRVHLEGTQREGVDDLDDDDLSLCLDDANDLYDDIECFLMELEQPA
Sequence	log fluorescence
GACGCTCTCCTACTGCTGACGTGCTAG	0.0102 z-score
GACGATTTCGGGAATGGAGACGTGCTA	0.296 z-score
GTATGACTCTGCCTCTAACTGTGCTAG	0.0337 z-score
GACGGTATCGGGTATCGGGTCGTGCTA	0.788 z-score
TTAGGTCTCCTACTGCTCTAGTGCTAG	-0.314 z-score
GACGGTCTCCTTATCCTGAAGTGCTAG	0.188 z-score
GACGATATCAGTTTCGGGACGTGCTAG	3.29 z-score
GACGATCTCACACTGGAGACGTGCTAG	-0.285 z-score

Set 2
Target: RING finger protein unkempt homolog, zinc fingers 1-6, GST-SBP tag (UNK, Homo sapiens, UniProt Q9C0B0, residues 30-357)
Technique: RNA Bind-n-Seq
Form: RNA
Matrix: in vitro
Concentration: not given
Notes: RNA with constant flanks, human and mouse sites, ends assumed
Baseline: input RNA pool
Reading: higher = stronger binding
All sequences stand within: GGGAGUUCUACAGUCCGACGAUC … CAACAGAGGAUUGAGCAUCA
Target sequence (chain): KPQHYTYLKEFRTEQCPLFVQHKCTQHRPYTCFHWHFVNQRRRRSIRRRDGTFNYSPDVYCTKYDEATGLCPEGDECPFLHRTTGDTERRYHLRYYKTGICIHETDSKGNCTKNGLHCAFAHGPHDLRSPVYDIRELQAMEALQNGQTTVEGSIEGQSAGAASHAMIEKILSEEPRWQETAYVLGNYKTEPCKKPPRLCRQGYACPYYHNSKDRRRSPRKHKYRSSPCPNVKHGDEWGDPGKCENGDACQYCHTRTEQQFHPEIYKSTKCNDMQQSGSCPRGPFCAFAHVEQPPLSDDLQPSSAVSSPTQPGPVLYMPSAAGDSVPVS
Sequence	bound/input enrichment
ACUUGACUUCAGGCAGCAGAUUGUCUAGAAGCCUAAGGACAGCAAUUUCUCUGACAAGACAAAGUAGAUAUUUUAUACCAGGGGUUGGCAAACUACUGCCCACGGGCCGAAUUUGGCCCA	1.26 ratio
CCGGGCUCAGGGCUCGUUCUGGUCUGCCUAGUCCUGGGAGCUGUGCGGUCUUAUGCAUUGGAACUUAAUUUGACAGAUUCAGAAAAUGCCACUUGCCUUUAUGCAAAAUGGCAGAUGAAU	0.134 ratio
UUGUUUAAUAUUUAGAAGCACACAAAAAAGAGGAGAAUCGUUUGGAAUCAGCAGAAUAGGUAGCAAAAUUAAAGGCGUAUUCAAGAGUACGACAAUGGAGGGAGCUGUGCUGCCUAAUUA	1.74 ratio
UGUUGGGGGUGGGUAUAAAAGAUGGGGUCUGUAAAAUCUUUUUUUCUUAGAAAUUCAUUUACUAGUUAUGUAGAAAUGGUUGUAUUAGAUGUUCUCUAUCAUUUAAUAAUAUACUUGUGG	16.3 ratio
GACCAAGAUGGAAAUGAAGAGCUAAAGGACUUGGAAGAAUUUGGUGAAAAUGAAGAGGAAAUUGUGCAUUCCCAGGAGUUGCUUUCUACAGAAGAGAACAAGACAACUCAGGAAUUUGUA	0.268 ratio
UCUCCCAUAACAAAUGAUGGGGAAGAUGAAUUUGUUCCUUCAGAUGGGUUAGAUAAAGAUGAAUAUACAUUUUCACCAGGCAAAUCAAAAGCCACUCCAGAAAAAUCUUUGCAUGACAAA	0.262 ratio
CGUCCGGAGCGGACGGAGCGGACCUGGCUGGCCGCGCAUCGCCCUCGCCUGGGGCCAUGAAGUAGCUGCGGCCGCCAGCCUUGCCCUCCCGCUGGCCCGGCCACUGCCCGCUGCCCCGGU	0.169 ratio
AGAUUGUUCUCCAGCAGCCUAGUGGCCAUCGUCAGCCUUAAAGCACCAAGGAAGCUAAAGGUUUGCCACUUUAAGAAGGGAACUGAGAUCUGCAACUACAGCUACUCCAACACGAUUCUG	0.0762 ratio

Set 3
SMILES: Cn1cc(Cl)c2c(Oc3c(F)cc(Nc4cc(Cl)nc(N)n4)cc3F)ccnc21
Technique: competition with immobilised ligand
Concentration: 0.1 µM
target	assay	remaining binding [%]
Tyrosine-protein kinase Fer (FER, Homo sapiens, UniProt P16591)	cell-free assay	100
Discoidin domain-containing receptor 2 (DDR2, Homo sapiens, UniProt Q16832)	cell-free assay	66
Cyclin-dependent kinase 18 (CDK18, Homo sapiens, UniProt Q07002)	cell-free assay	100
Tyrosine-protein kinase ABL1, non-phosphorylated (ABL1, Homo sapiens, UniProt P00519, F317L)	cell-free assay	94
Tyrosine-protein kinase JAK1, JH1 (JAK1, Homo sapiens, UniProt P23458)	cell-free assay	89
Serine/threonine-protein kinase 38-like (STK38L, Homo sapiens, UniProt Q9Y2H1)	binding	100
Mitogen-activated protein kinase 1 (MAPK1, Homo sapiens, UniProt P28482)	cell-free assay	100
Casein kinase I isoform epsilon (CSNK1E, Homo sapiens, UniProt P49674)	cell-free assay	98
Receptor-type tyrosine-protein kinase FLT3 (FLT3, Homo sapiens, UniProt P36888, D835V)	cell-free assay	91
Peripheral plasma membrane protein CASK (CASK, Homo sapiens, UniProt O14936)	cell-free assay	100
Tyrosine-protein kinase JAK1, JH2 (JAK1, Homo sapiens, UniProt P23458)	cell-free assay	83
SRSF protein kinase 3 (SRPK3, Homo sapiens, UniProt Q9UPE1)	cell-free assay	100
Serine/threonine-protein kinase ULK1 (ULK1, Homo sapiens, UniProt O75385)	cell-free assay	93
Vascular endothelial growth factor receptor 3 (FLT4, Homo sapiens, UniProt P35916)	cell-free assay	96
Mitogen-activated protein kinase kinase kinase kinase 2 (MAP4K2, Homo sapiens, UniProt Q12851)	cell-free assay	81
MAP kinase-interacting serine/threonine-protein kinase 1 (MKNK1, Homo sapiens, UniProt Q9BUB5)	cell-free assay	100

Set 4
Target: BDNF/NT-3 growth factors receptor (NTRK2, Homo sapiens, UniProt Q16620)
Sequence of UniProt Q16620 (whole entry, looked up): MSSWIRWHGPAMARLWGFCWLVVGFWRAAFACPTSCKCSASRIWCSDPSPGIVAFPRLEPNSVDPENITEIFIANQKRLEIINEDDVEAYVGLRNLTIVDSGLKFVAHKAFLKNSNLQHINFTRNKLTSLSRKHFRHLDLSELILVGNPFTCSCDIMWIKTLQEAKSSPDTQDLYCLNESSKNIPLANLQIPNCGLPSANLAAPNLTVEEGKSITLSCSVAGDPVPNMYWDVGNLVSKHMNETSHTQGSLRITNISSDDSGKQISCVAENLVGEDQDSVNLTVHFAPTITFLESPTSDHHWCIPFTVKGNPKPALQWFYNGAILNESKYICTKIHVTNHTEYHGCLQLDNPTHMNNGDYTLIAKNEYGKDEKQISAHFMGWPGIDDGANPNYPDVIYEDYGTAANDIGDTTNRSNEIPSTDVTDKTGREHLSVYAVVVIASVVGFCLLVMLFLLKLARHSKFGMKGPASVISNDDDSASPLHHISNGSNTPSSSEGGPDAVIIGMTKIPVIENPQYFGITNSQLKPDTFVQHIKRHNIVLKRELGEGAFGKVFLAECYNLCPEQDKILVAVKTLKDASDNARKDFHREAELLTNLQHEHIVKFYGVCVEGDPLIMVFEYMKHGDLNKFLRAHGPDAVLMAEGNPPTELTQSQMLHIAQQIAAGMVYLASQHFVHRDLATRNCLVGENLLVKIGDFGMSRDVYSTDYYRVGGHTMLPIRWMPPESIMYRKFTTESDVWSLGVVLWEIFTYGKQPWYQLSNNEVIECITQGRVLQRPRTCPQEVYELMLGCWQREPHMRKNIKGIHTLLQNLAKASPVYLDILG
Observed: enzyme activity
Action: inhibitor
Concentration: 0.5 µM
Baseline: control
SMILES	remaining activity
N#CC(C#N)=C(N)/C(C#N)=C/c1ccc(O)cc1	95.4%
COc1cc2ncnc(Nc3ccc(F)c(Cl)c3)c2cc1OCCCN1CCOCC1	98.2%
COc1ccc(CNC(=O)Nc2ncc([N+](=O)[O-])s2)cc1	85.6%
CCOC(=O)c1c(C)[nH]c(/C=C2\C(=O)Nc3ccccc32)c1C	66.6%
O=C1NC(=O)C(c2cn(CCCn3ccnc3)c3ccccc23)=C1Nc1ccccc1	85.8%
CNC(=O)c1cc(Oc2ccc(NC(=O)Nc3ccc(Cl)c(C(F)(F)F)c3)cc2)ccn1	90%
O=S(=O)(c1cccc2cnccc12)N1CCCNCC1	102%
Cn1c2ccccc2c2c3c(c4c5ccccc5n(CCC#N)c4c21)CNC3=O	0.815%
NCCNc1ncc(C(N)=O)c(Nc2cccc(C(F)(F)F)c2)n1	92.4%
CO[C@H]1C[C@@H]2CC[C@@H](C)[C@@](O)(O2)C(=O)C(=O)N2CCCC[C@H]2C(=O)O[C@H]([C@H](C)C[C@@H]2CC[C@@H](O)[C@H](OC)C2)CC(=O)[C@H](C)/C=C(\C)[C@@H](O)[C@@H](OC)C(=O)[C@H](C)C[C@H](C)/C=C/C=C/C=C/1C	106%
CN(C)c1ccc(C=C2C(=O)Nc3ccccc32)cc1	54.8%
COc1cc2ncnc(Nc3ccc(Oc4ccccc4)cc3)c2cc1OC	103%
Oc1ccc(-c2nc(-c3ccncc3)c(-c3ccc(F)cc3)[nH]2)cc1	102%
CC(C)[C@H](CO)Nc1nc(Nc2cc(N)cc(Cl)c2)c2ncn(C(C)C)c2n1	3.04%
